Values quoted from earlier work, collected from citations in different studies.
Numbered parts are unrelated; values within a part may stem from several laboratories. ± marks the error that the study gave. Converted amounts (≈) assume the structure as drawn.
Sequence of UniProt P43144 (whole entry, looked up): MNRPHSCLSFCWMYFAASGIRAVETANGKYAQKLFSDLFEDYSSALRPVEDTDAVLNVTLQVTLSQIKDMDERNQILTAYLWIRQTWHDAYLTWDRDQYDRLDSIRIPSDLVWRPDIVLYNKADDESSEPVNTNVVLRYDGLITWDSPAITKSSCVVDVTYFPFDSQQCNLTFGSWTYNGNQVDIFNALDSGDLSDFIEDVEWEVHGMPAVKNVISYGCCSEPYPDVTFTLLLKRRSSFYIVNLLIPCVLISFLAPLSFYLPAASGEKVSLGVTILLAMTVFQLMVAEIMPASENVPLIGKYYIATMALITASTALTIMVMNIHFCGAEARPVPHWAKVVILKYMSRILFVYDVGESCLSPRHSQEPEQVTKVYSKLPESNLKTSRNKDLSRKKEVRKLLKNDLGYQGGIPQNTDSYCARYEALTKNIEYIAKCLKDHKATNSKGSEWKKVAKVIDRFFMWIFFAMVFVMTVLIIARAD
Sequence of UniProt Q9JLB5 (whole entry, looked up): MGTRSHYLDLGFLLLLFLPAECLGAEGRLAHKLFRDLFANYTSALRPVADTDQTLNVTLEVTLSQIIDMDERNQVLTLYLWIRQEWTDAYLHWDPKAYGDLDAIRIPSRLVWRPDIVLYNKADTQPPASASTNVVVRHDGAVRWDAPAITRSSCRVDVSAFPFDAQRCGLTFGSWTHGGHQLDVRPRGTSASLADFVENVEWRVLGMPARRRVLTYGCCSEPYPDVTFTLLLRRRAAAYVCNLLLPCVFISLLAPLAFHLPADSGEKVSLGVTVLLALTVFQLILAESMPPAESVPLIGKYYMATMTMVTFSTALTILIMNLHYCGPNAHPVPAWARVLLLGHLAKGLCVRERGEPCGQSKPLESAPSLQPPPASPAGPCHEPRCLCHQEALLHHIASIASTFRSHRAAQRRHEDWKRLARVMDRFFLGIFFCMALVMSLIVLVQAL

Study 1 — observed: peptide-MHC binding; molecule type: peptide
Target: HLA class I histocompatibility antigen, C alpha chain, allele C*04:01 (Homo sapiens, UniProt P10321)
Molecule | IC50 [µM]
YSLEYFQFV | 20
AENQLFHST | > 5
YYNAFHWA | > 20
RQSSGSSSSGF | > 20
SYMMDDLELI | > 20
TYLQSLASL | > 5
NRDVSFQDL | 20
RVRWRNYAL | > 5
MRYFIGQPL | > 5
ITLFPSYQL | > 5
YTIDLNDAF | > 5
TSASFTDLY | > 5
YTYGAGSYF | 20

Single results of other studies
20S proteasome: 20S proteasome (Plasmodium falciparum, UniProt A0A5K1K7U1+Q8I261+Q8IJT1)
Compound | target or system | test | test system | setting | measurement | result
COCC(=O)N1CCC[C@H](C(=O)NCc2nc(-c3ccc(OC)cc3)cs2)C1 | 20S proteasome | enzyme activity, inhibitor | – | together with: Suc-LLVY-AMC 20 µM | IC50 | 0.074 µM
O=C1N[C@@H]2CCCC[C@H]2N[C@@H]1c1c[nH]c2ncccc12 | COLO 205 | cytotoxicity | – | – | IC50 | > 100 µM
CN1CCc2[nH]c3ccccc3c2CC1.O=C(O)/C=C/C(=O)O | Nicotinic acetylcholine receptor alpha9/alpha10 (Rattus norvegicus, UniProt P43144+Q9JLB5) | inhibitor | – | together with: 100 µM acetylcholine | Hill coefficient | 2 ± 0.2
S=C(NC1CCCCC1)N1CCC(c2cnc[nH]2)CC1 | – | hot plate test | rat | intracerebroventricular, 340 nmol | antinociceptive activity | inactive
CCCN1CCC=C(c2cc(-c3ccc(C)cc3)no2)C1 | sigma-1 receptor | binding, antagonist | – | – | Ki | 0.0008 µM
O=C(CS)Nc1ccc(Cl)c(Cl)c1 | HepG2 | – | – | – | IC50 | > 100 µM
CNC(=NC#N)NCCCCc1c[nH]cn1 | – | antinociception, hot plate test | rat | intracerebroventricular, 5 min | ED50 | 81.7 nmol
COc1ccc(C[C@@H](C)[C@@H](C)Cc2ccc(OC)c(OC)c2)cc1OC | – | – | mouse | intraperitoneal | LD50 | 300 mg/kg
O=c1ccc2ncc(=O)n3c2n1C[C@H]3CN1CCC(NCc2cc3c(cn2)OCCC3)CC1 | Escherichia coli | – | quinolone-resistant | – | MIC90 | 4 µg/mL (≈ 8.92 µM)
CCN(CC)N=O | – | fingerprint mutation, measured: T>A substitution | rat, liver | concentration not given | mutation frequency | increased
CC(=O)C[C@@H](c1ccccc1)c1c(O)c2ccccc2oc1=O | – | – | human | – | renal clearance | 0.003 L/h
CO[C@@H]1CC/C=C/c2cccc(c2)[C@@H](CCNC(=O)OC(C)(C)C)OC(=O)[C@@H]2CCCN(N2)C(=O)[C@H](C)NC(=O)[C@H](C(C)C)NC(=O)[C@@H]1C | cyclophilin | inhibitor | – | – | Kd | 0.024 µM
COCC(=O)N1CCC[C@H](C(=O)NCc2nc(-c3ccccc3)cs2)C1 | 20S proteasome | enzyme activity, inhibitor | – | together with: Suc-LLVY-AMC 20 µM | IC50 | 0.13 µM

A few entries again (study 1):
Molecule | IC50 [µM]
TYLQSLASL | > 5
TSASFTDLY | > 5
AENQLFHST | > 5
